# Published values collected from several papers.
# Protocols differ between the studies behind these lines. Numbers after ± are the reported error.
SMILES,target or system,test,system,setting,how to read,endpoint,result
CC(C)C[C@@H]1NC(=O)CNC(=O)[C@H](CC(N)=O)NC(=O)[C@H](CCCNC(=N)N)NC(=O)[C@H]([C@@H](C)O)NC(=O)[C@@H]2CSSC[C@@H]3NC(=O)[C@H]([C@@H](C)O)NC(=O)CNC(=O)CNC(=O)[C@H](C(C)C)NC(=O)[C@@H]4CSSC[C@H](NC(=O)[C@H]([C@@H](C)O)NC(=O)[C@H](CSSC[C@H](NC(=O)[C@H](C(C)C)NC(=O)[C@@H]5CCCN5C1=O)C(=O)NCC(=O)N[C@@H](CCC(=O)O)C(=O)N[C@@H]([C@@H](C)O)C(=O)N4)NC(=O)CNC(=O)[C@@H]1CCCN1C(=O)[C@H]([C@@H](C)O)NC(=O)[C@H](CC(N)=O)NC3=O)C(=O)N[C@@H](CO)C(=O)N[C@@H](Cc1c[nH]c3ccccc13)C(=O)N1CCC[C@H]1C(=O)N[C@@H](CCCCN)C(=O)N2,,HPLC,ammonium bicarbonate,"180 µM, 7 days, pH 9.0, 25 °C, deamidation stability",,remaining peptide,89.7 ± 0.8%
CN1CCN(S(=O)(=O)c2cc([N+](=O)[O-])ccc2N(CCOS(C)(=O)=O)CCOS(C)(=O)=O)CC1,,,"naive female NSG mice, plasma","intraperitoneal, 25 mg/kg",,AUMC(0-inf),1.42 µM·h²
Cc1cccc(Cn2nc(C3CC3)c3c(NC(=O)c4cnc5cc(OCCN6CCN(C)CC6)ccn45)cccc32)n1,,refers to: Diarrhea,human pancreatic ductal adenocarcinoma,"oral, dose not given, all-causality",,adverse events incidence,14.8%
N#C[C@H](O[C@@H]1O[C@H](CO)[C@@H](O)[C@H](O)[C@H]1O)c1ccccc1,,,"Sprague Dawley rat, plasma","oral, 3.34 g lyophilized powder/kg, low dose",,Vz/F,20.4 ± 8.66 L/kg
COc1cc2c(Oc3ccc4[nH]c(C)cc4c3F)ccnc2cc1OCC1(N)CC1,,,paediatric recurrent refractory sarcoma,10 mg,,grade 3 ALT elevation,0%
CC(C)C[C@H](NC(=O)[C@H](CCCCN)NC(=O)OCC1c2ccccc2-c2ccccc21)C(=O)N[C@H](C(=O)N[C@@H](Cc1ccccc1)C(=O)N[C@@H](Cc1ccccc1)C(=O)N[C@@H](CCCCN)C(=O)NCC(=O)N[C@@H](Cc1ccccc1)C(=O)N[C@@H](C)C(=O)N[C@@H](Cc1c[nH]c2ccccc12)C(=O)N[C@@H](CC(N)=O)C(=O)N[C@H](C(=O)N[C@H]1CSSC[C@@H](C(=O)N[C@@H](Cc2c[nH]cn2)C(=O)N[C@@H](CCCNC(=N)N)C(=O)N[C@@H](CCCNC(=N)N)C(=O)N[C@@H](C)C(=O)N[C@@H](CC(N)=O)C(N)=O)NC(=O)[C@H](C(C)C)NC(=O)[C@H](CCCNC(=N)N)NC(=O)[C@H](C(C)C)NC(=O)CNC(=O)[C@H](CC(N)=O)NC(=O)[C@H](CCCNC(=N)N)NC(=O)[C@H](Cc2ccc(O)cc2)NC(=O)[C@H](C(C)C)NC1=O)C(C)C)C(C)C,,,ICR mouse,"ip, 5 mg/kg",direction not given,stimulus response score,0
O=[N+]([O-])c1cc2c3c(ccc2c2ccccc12)[C@H](O)[C@@H](O)C=C3,,refers to: adenocarcinoma mammary tumours,female Sprague-Dawley rats,"intramammary, 12.3 µmol per rat, up to 32 weeks",,tumours per rat,0.25 ± 0.53
C=CCNc1c(O)cc2c(O)c1C[C@@H](C)C[C@H](OC)[C@H](O)[C@@H](C)/C=C(\C)[C@H](OC(N)=O)[C@@H](OC)/C=C\C=C(/C)C(=O)N2,,,"unresectable or metastatic STS, GIST, other","intravenous, 90 mg/m^2",,patients with sinus bradycardia,0%
CC(=O)c1c(C)c2cnc(Nc3ccc(C4CCN(CCS(C)(=O)=O)CC4)cn3)nc2n(C2CCCC2)c1=O,,,HR+/HER2- advanced breast cancer patients,"oral, 150 mg",,patients with any TRAE,100%
CN1CCN(c2ccc(Nc3nccc(-c4ccc(C#N)cc4)n3)cc2C(F)(F)F)CC1,,,zebrafish embryos,"25 µM, 5 d",,toxicity,0%
CCN(CC)[C@@H]1CCc2c(F)ccc(O)c2C1,Plasmodium falciparum,,D10,,,IC50,2.51 µM
C[C@]1(CO)Cc2ncn(-c3ccc(C#N)c(Cl)c3)c2C(=O)O1,,,human,"80 mg multiple doses, fasted",,subjects with drug-related urine abnormality,0%
CC(C)C[C@@H]1NC(=O)CNC(=O)[C@H](CC(N)=O)NC(=O)[C@H](CCCNC(=N)N)NC(=O)[C@H]([C@@H](C)O)NC(=O)[C@@H]2CSSC[C@@H]3NC(=O)[C@H]([C@@H](C)O)NC(=O)CNC(=O)CNC(=O)[C@H](C(C)C)NC(=O)[C@@H]4CSSC[C@H](NC(=O)[C@H]([C@@H](C)O)NC(=O)[C@H](CSSC[C@H](NC(=O)[C@H](C(C)C)NC(=O)[C@@H]5CCCN5C1=O)C(=O)NCC(=O)N[C@@H](CCC(=O)O)C(=O)N[C@@H](CCCCN)C(=O)N4)NC(=O)CNC(=O)[C@@H]1CCCN1C(=O)[C@H]([C@@H](C)O)NC(=O)[C@H](CC(N)=O)NC3=O)C(=O)N[C@@H](CO)C(=O)N[C@@H](Cc1c[nH]c3ccccc13)C(=O)N1CCC[C@H]1C(=O)N[C@@H](C(C)C)C(=O)N2,,HPLC,water,"180 µM, 14 days, 37 °C, deamidation stability",,remaining peptide,99.1 ± 0.7%
C=CC(=O)Nc1cc(Nc2nccc(Nc3cc(Cl)c(F)cc3C(C)(C)O)n2)c(OC)cc1N1CC[C@@H](N(C)C)C1,,,human patients,"oral, 400 mg, treatment-emergent adverse events",,patients with lipase increased,20%
O=C1Nc2cc3[nH]nc(-c4ccncc4)c3cc2CN1Cc1ccccc1,,CTCAE v4.03,advanced solid tumour patients,"intravenous, 7.2 mg/kg, schedules 1/2",,patients with acneiform dermatitis,40%
O=S(=O)(Nc1ccccc1)c1ccc(NC(=S)Nc2ccccc2)cc1,,,"female mice, spleen","oral, 20 mg/kg daily 14 days",relative to: body weight,relative organ weight,0.36%
COc1ccc(-c2c(-c3ccc(C#N)c(F)c3)nc(N3CCC(N)CC3)n(C)c2=O)cc1F,,refers to: Nausea,relapsed/refractory marginal zone lymphoma patients,"oral, 60 mg, any grade, dose expansion",,treatment-related adverse event incidence,0%
O=C(O)CCCOc1ccc(F)cc1-c1cc(-c2ccccc2C(F)(F)F)n(-c2ccccc2)n1,,refers to: Eosinophils,"Crl:CD(SD) rats, female, blood","iv, 25 µg/kg, 1 day",,leukocyte differential,1.2 ± 0.5%
CN(C(=O)n1cnc(-c2ccc[n+]([O-])c2)c1)C1CCCCC1,,,"Wistar rat, cerebral cortex","oral, 10 mg/kg/day, 48 h, repeated 5 days",,concentration,9.4 ± 1.3 ng/g
Nc1nc(N)c2nc(-c3ccccc3)c(N)nc2n1,Plasmodium falciparum,,HB3,,,IC50,10 µM
c1ccc2c(c1)ccc1cc3c(ccc4ccccc43)cc12,,,fresh water,"12 (unit not given), 20 °C, S30-2 sampler, 30 µm",,log K(PDMS-water),5.2 ± 0.11
CCc1ccc(CC/C=C/c2ccc3c(c2)C(=O)CC3)cc1,,,"Sprague-Dawley rat, female","oral, 120 mg/kg/day, 14 days",,Erythrocyte percentage,10.7%
c1ccc2c(c1)cc1ccc3cccc4ccc2c1c34,,,fresh water,"12 (unit not given), 20 °C, SSP sampler, 100 µm",,log K(PDMS-water),5.17 ± 0.02
NC(=O)[C@H]1CCN(c2ncnc(N)c2F)C[C@@H]1N1CCC[C@@H](Nc2cc(Cl)cc(C(F)(F)F)c2)C1=O,,,B-cell malignancy patients,"oral, 41 mg twice daily, dose",,grade ≥3 thrombocytopenia,20%
Clc1ccc(-c2ccc(Cl)c(Cl)c2)c(Cl)c1,,,fresh water,"20 °C, S30-1 sampler, 30 µm",,log K(PDMS-water),5.66 ± 0.05
CCCCCOc1ccc(-c2ccc(-c3ccc(C(=O)N[C@H]4C[C@@H](O)[C@@H](O)NC(=O)[C@@H]5[C@@H](O)[C@@H](C)CN5C(=O)[C@H]([C@@H](C)O)NC(=O)[C@H]([C@H](O)[C@@H](O)c5ccc(O)cc5)NC(=O)[C@@H]5C[C@@H](O)CN5C(=O)[C@H]([C@@H](C)O)NC4=O)cc3)cc2)cc1,,,"human, morbidly obese, plasma","intravenous, 100 mg single dose, BMI above 40 kg/m2",,volume of distribution,47.2 ± 5.9 L
CO[C@H]1C[C@@H]2CC[C@@H](C)[C@@](O)(O2)C(=O)C(=O)N2CCCC[C@H]2C(=O)O[C@H]([C@H](C)C[C@@H]2CC[C@@H](OC(=O)NCCOCCOCCOCCOCCOCCOCCOCCOCCC(=O)N3CCc4cc(Cn5nc(-c6ccc7oc(N)nc7c6)c6c(N)ncnc65)ccc4C3)[C@H](OC)C2)C[C@@H](O)[C@H](C)/C=C(\C)[C@@H](O)[C@@H](OC)C(=O)[C@H](C)C[C@H](C)/C=C/C=C/C=C/1C,,,patients with advanced solid tumours,"intravenous, 10 mg weekly, grade 3 or higher",,AE leading to dose interruption,50%
CC(C)CC(=O)OC[C@H]1O[C@@](C#N)(c2ccc3c(N)ncnn23)[C@H](O)[C@@H]1O,,,mouse plasma,"0.9 to 90 µM, mean over concentrations",,unbound fraction,0.164
CCN(CCO)CCCC(C)Nc1ccnc2cc(Cl)ccc12 (stereo not shown),,,newly diagnosed glioblastoma patients,"oral, 400 mg/dose, grade 2, with: radiotherapy and temozolomide",,white cell decrease patients,14%
CC[C@H](C)[C@H](NC(=O)[C@H](CO)NC(=O)[C@H](CCCNC(=N)N)NC(C)=O)C(=O)N[C@H]1CSSC[C@@H](C(=O)N[C@H](C(N)=O)[C@@H](C)O)NC(=O)[C@H](CCCNC(=N)N)NC(=O)[C@H](Cc2c[nH]cn2)NC(=O)[C@H](C)NC(=O)CNC(=O)[C@H](Cc2c[nH]c3ccccc23)NC(=O)[C@H](CC(=O)O)NC(=O)[C@H](CCC(N)=O)NC(=O)[C@H](Cc2c[nH]c3ccccc23)NC(=O)[C@H](C(C)C)NC1=O,,"isocratic RP-HPLC, C18","32% acetonitrile, phosphate pH 7.4, 1% TFA",25 °C,,log retention factor,-0.306
COc1cccc2c1CCCC2CCCN1CCN(C2CCCCC2)CC1 (stereo not shown),,,"CD-1 mouse, male, lung","intraperitoneal, 1 mg/kg",,elimination rate constant,7.72e-05 s⁻¹

# Repeated from above:
SMILES,target or system,test,system,setting,how to read,endpoint,result
c1ccc2c(c1)ccc1cc3c(ccc4ccccc43)cc12,,,fresh water,"12 (unit not given), 20 °C, S30-2 sampler, 30 µm",,log K(PDMS-water),5.2 ± 0.11
CCc1ccc(CC/C=C/c2ccc3c(c2)C(=O)CC3)cc1,,,"Sprague-Dawley rat, female","oral, 120 mg/kg/day, 14 days",,Erythrocyte percentage,10.7%
